# Experimental data from different studies.
# Lines come from different studies, so protocols differ. pEC50, pIC50: −log10 of the molar value.
# Observed: cell growth or viability
Compound,cell line,method,tested at,time,quantity,value
CC(=NNC(=S)Nc1ccccc1)c1ccc(Nc2nnc(-c3ccc(Cl)cc3)c3ccccc23)cc1,HepG2,MTT,0.625 µM,,cell death,20.5%
CC(C)Nc1ccnc(Nc2ccc(-c3ccccc3)cc2)n1,BJ,ATP luminescence,,72 h,pEC50,< 4.59
CCCn1cnc2ccc(-c3ccc(NC(=O)CC)nc3)cc2c1=O,HCC827,CCK-8,,72 h,pIC50,6.02
CC(=NNC(=O)c1cccnc1)c1ccc(Nc2nnc(-c3ccc(Cl)cc3)c3ccccc23)cc1,HepG2,MTT,2.5 µM,,cell death,93.1%
NCCC(=O)Nc1ccccc1/N=c1\cc(-c2ccc3c(c2)OCCO3)oc2cc(F)ccc12,MOLM-13,CCK-8,1 µM,,inhibition,10.3%
c1cc(Nc2nccc(NC3CCCCC3)n2)cc(N2CCOCC2)c1,BJ,ATP luminescence,,72 h,pEC50,< 4.85
Cc1nc(Nc2ncc(C(=O)Nc3c(C)cccc3Cl)s2)cc(N2CC[C@H](O)C2)n1,JVM-3,ATP luminescence,10 µM,72 h,inhibition,61%
O=C(Nc1ccc(Oc2nnc(-c3ccc(Cl)cc3)c3ccccc23)cc1)c1ccccc1,HepG2,MTT,1.25 µM,,cell death,95.1%
CCCCC(=O)Nc1ccc(-c2cnc3ncn(CCC)c(=O)c3c2)cn1,HCC827,CCK-8,,72 h,pIC50,< 5.00
c1cncc(-c2ccc(Nc3nccc(NC4CCCCC4)n3)cc2)c1,BJ,ATP luminescence,,72 h,pEC50,< 4.89
Cc1ccccc1NC(=O)Nc1ccc(-c2ccc3ncn(Cc4ccccc4)c(=O)c3c2)cn1,HCC827,CCK-8,,72 h,pIC50,5.61
CC(=NNC(=O)c1ccccc1Cl)c1ccc(Nc2nnc(-c3ccc(Cl)cc3)c3ccccc23)cc1,HepG2,MTT,5 µM,,cell death,96.5%
COc1ccc2/c(=N/c3ccccc3NC(=O)CN)cc(-c3ccc4c(c3)OCCO4)oc2c1,MOLM-13,CCK-8,1 µM,,inhibition,-0.02%
O=C(Nc1ccc(-c2ccc3ncn(Cc4ccccc4)c(=O)c3c2)cn1)C1CC1,NCI-H1975,CCK-8,,72 h,pIC50,< 5.00
CC(=NNC(=O)c1ccccc1Br)c1ccc(Nc2nnc(-c3ccc(Cl)cc3)c3ccccc23)cc1,HepG2,MTT,1.25 µM,,cell death,88.1%
O=C(Nc1ccccc1/N=c1\cc(-c2ccc3c(c2)OCO3)oc2ccccc12)N1CCOCC1,NCI-H1975,CCK-8,1 µM,,inhibition,0.46%
CCC(=CCc1c(O)cc2c(c1O)C(=O)C[C@@H](c1ccc(O)cc1)O2)CC,HeLa,MTT,1.563 µM,48 h,inhibition,-5.98%
CN(C)CCNC(=O)c1ccc(-c2nc3ccc4[nH]ncc4c3c3c2CCCCC3)cn1,K562,resazurin,,72 h,GI50,6.4 µM
CCCCCC(=O)Nc1ccc(-c2ccc3ncn(Cc4ccccc4)c(=O)c3c2)cn1,NCI-H1975,CCK-8,,72 h,pIC50,< 5.00
Cc1n[nH]c2ccc3nc(-c4ccc(C(=O)NCCN(C)C)cn4)c4c(c3c12)CCCCC4,K562,resazurin,,72 h,GI50,6.7 µM
NCC(=O)Nc1ccccc1/N=c1\cc(-c2ccc3c(c2)OCO3)oc2c([N+](=O)[O-])cccc12,MOLM-13,CCK-8,1 µM,,inhibition,3.85%
CNCc1cc(OC)cc2c1CN(c1cccc(-c3nncn3C(C)CC(F)(F)F)n1)C2=O (stereo not shown),HCC827,CCK-8,,,pIC50,5.91
C#C[C@@]1(O)[C@@H](CO)O[C@@H](n2cc(Cl)c3c(N)ncnc32)[C@@H]1O,Malme-3M,SRB,,,GI50,0.223 µM
COc1ccc(NC(=O)c2c(Nc3ccccc3)sc(C#N)c2NC(=O)CNc2ccccc2[N+](=O)[O-])cc1,HepG2,SRB,1 µM,48 h,viability,67.3%
O=C(C=Cc1ccccc1)Nc1ccc(Oc2nnc(-c3ccc(Cl)cc3)c3ccccc23)cc1,HepG2,MTT,0.312 µM,,cell death,0.383%
CN(c1cccc(-c2cccnc2)c1)c1nccc(N(C)C2CCCCC2)n1,BJ,ATP luminescence,,72 h,pEC50,< 5.30
Cc1n[nH]c2ccc3nc(-c4ccc(C(=O)NCCN(C)C)cc4)c4c(c3c12)CCC(F)(F)C4,K562,resazurin,,72 h,GI50,5.8 µM
COc1cccc(-c2cccc(Nc3nccc(NC(C)C)n3)c2)c1,BJ,ATP luminescence,,72 h,pEC50,4.86
CC(=NNC(=O)c1ccncc1)c1ccc(Nc2nnc(-c3ccc(Cl)cc3)c3ccccc23)cc1,HepG2,MTT,1.25 µM,,cell death,94.7%
CCCCC(=O)Nc1ccc(-c2ccc3ncn(CCC)c(=O)c3c2)cn1,NCI-H1975,CCK-8,,72 h,pIC50,7.21
Nc1nc2ccc(-c3c/c(=N\c4ccccc4NC(=O)CCN4CCOCC4)c4ccccc4o3)cc2o1,NCI-H1975,CCK-8,1 µM,,inhibition,5%
c1cc(Nc2nccc(NC3CCCCC3)n2)cc(C2CC2)c1,BJ,ATP luminescence,,72 h,pEC50,4.91
CCCCn1cnc2ccc(-c3ccc(NC(=O)Nc4ccc(F)cc4)nc3)cc2c1=O,HCC827,CCK-8,,72 h,pIC50,5.21
c1cncc(-c2cccc(Nc3nccc(NC4CCCC4)n3)c2)c1,BJ,ATP luminescence,,72 h,pEC50,4.96
NCCC(=O)Nc1ccccc1/N=c1\cc(-c2ccc3oc(N)nc3c2)oc2ccccc12,MOLM-13,CCK-8,1 µM,,inhibition,21.2%
c1cncc(-c2cccc(Nc3nccc(NC4CCCCC4)n3)c2)c1,BJ,ATP luminescence,,72 h,pEC50,< 5.05
CNCCC(=O)Nc1ccccc1/N=c1\cc(-c2ccc3nc(N)oc3c2)oc2ccccc12,MDA-MB-231,CCK-8,1 µM,,inhibition,69.5%

# Some of these lines once more:
Compound,cell line,method,tested at,time,quantity,value
O=C(Nc1ccc(Oc2nnc(-c3ccc(Cl)cc3)c3ccccc23)cc1)c1ccccc1,HepG2,MTT,1.25 µM,,cell death,95.1%
O=C(Nc1ccc(-c2ccc3ncn(Cc4ccccc4)c(=O)c3c2)cn1)C1CC1,NCI-H1975,CCK-8,,72 h,pIC50,< 5.00
NCCC(=O)Nc1ccccc1/N=c1\cc(-c2ccc3c(c2)OCCO3)oc2cc(F)ccc12,MOLM-13,CCK-8,1 µM,,inhibition,10.3%
CNCc1cc(OC)cc2c1CN(c1cccc(-c3nncn3C(C)CC(F)(F)F)n1)C2=O (stereo not shown),HCC827,CCK-8,,,pIC50,5.91
CCCCC(=O)Nc1ccc(-c2cnc3ncn(CCC)c(=O)c3c2)cn1,HCC827,CCK-8,,72 h,pIC50,< 5.00
CC(C)Nc1ccnc(Nc2ccc(-c3ccccc3)cc2)n1,BJ,ATP luminescence,,72 h,pEC50,< 4.59
